Assay results pooled from the literature.
Lines come from different studies, so protocols differ. ± marks the error that the study gave.

CCN1/C(=C/C(C)=O)Sc2ccc(F)cc21 — mean blood pressure (cynomolgus monkey; oral, 10 mg/kg, 24 h post-dose): 91 ± 3 mmHg
O=C(Cn1ccnc1)Nc1ccc([C@H]2[C@@H](F)[C@@H](F)C[C@@H](F)[C@H]2F)cc1 — hepatic clearance (cryopreserved human hepatocytes; 1 µM): 6.2 mL/min/kg
Cn1cc(-c2cn3nccc3c(-c3cnn([C@]4(CC#N)C[C@@H](C#N)C4)c3)n2)cn1 — observed accumulation ratio (healthy humans fed, plasma; oral, 400 mg once daily, day 10, geometric mean; reference: day 10 over day 1): 1.2
O=C(Nc1nc2cccc(-c3ccc(CN4CCS(=O)(=O)CC4)cc3)n2n1)C1CC1 — treatment-emergent adverse events (item: dyspepsia; human rheumatoid arthritis patients; oral, 300 mg once daily, 4 weeks, regardless of relatedness): 0%
CCO[C@H]1CCN(Cc2c(OC)cc(C)c3[nH]ccc23)[C@H](c2ccc(C(=O)O)cc2)C1 — unbound AUC0–12 (human healthy controls, plasma; oral, 200 mg single dose, mean): 3230 ng·h/mL
CN(CCC#N)C(=O)c1ccc([C@H]2[C@@H](F)[C@@H](F)C[C@@H](F)[C@H]2F)cc1 — hepatic clearance (hepatocyte stability; cryopreserved human hepatocytes; 1 µM): 6.2 mL/min/kg
CCOc1c([C@H](C)n2nc(C)c3c(N)ncnc32)cc(Cl)c(F)c1[C@@H]1CNC(=O)C1 — observations with PR >220 ms (human B-cell malignancy patients; oral, all doses, baseline below threshold): 1.6%
Cn1ncnc1[C@H]1c2n[nH]c(=O)c3cc(F)cc(c23)N[C@@H]1c1ccc(F)cc1 — AUC(0-8h) (human patients, plasma; oral, 400 µg/m2 twice daily, day 1, monotherapy, dose level DL2, median): 7.3 ng·h/mL
CN1CCN(C(=O)c2ccc([C@H]3[C@@H](F)[C@@H](F)C[C@@H](F)[C@H]3F)cc2)CC1=O — hepatic clearance (liver microsome stability; human liver microsomes; 1 µM, without NADPH): 3.9 mL/min/kg
CC(C)(C(=O)N1CCOc2c(C#N)cncc2C1)C(F)F — subjects with adverse event (item: Dyspepsia; human; oral, 15 mg twice daily, 14 days, multiple ascending dose): 12.5%

For quick reference, copied from above:
CCOc1c([C@H](C)n2nc(C)c3c(N)ncnc32)cc(Cl)c(F)c1[C@@H]1CNC(=O)C1 — observations with PR >220 ms (human B-cell malignancy patients; oral, all doses, baseline below threshold): 1.6%
